Experimental data gathered from unrelated publications.
Protocols differ between the studies behind these lines. “And” joins repeats or separate records; there may be more than shown. ± marks the error that the study gave.
UCHL1: Ubiquitin carboxyl-terminal hydrolase isozyme L1 (UCHL1, Homo sapiens, UniProt P09936)
UniProt P09936, sequence (whole entry, looked up): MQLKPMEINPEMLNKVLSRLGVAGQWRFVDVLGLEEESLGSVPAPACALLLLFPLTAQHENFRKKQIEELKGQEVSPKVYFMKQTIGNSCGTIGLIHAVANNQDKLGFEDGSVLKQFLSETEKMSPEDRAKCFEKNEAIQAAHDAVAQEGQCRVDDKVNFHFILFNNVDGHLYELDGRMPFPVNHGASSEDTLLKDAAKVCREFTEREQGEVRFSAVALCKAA

For `Cc1cnc(N2CC3(CCOCC3)C2)c(C(=O)Nc2ccc(C(=O)N3CCc4cc(C(=O)Nc5c(C)cccc5F)sc4-c4ccccc43)cc2)c1`, “inhibition of MCP3 AUC” read 11% (human, RSV infection, nasal wash; dose not given, ITT-I population; relative to: placebo).
`C[C@@H]1CCC[C@H](n2cnc(-c3cc(Cl)ccc3-n3cc(Cl)nn3)cc2=O)c2cc(ccn2)-c2c(cnn2C(F)F)NC1=O`: “concentration for aPTT prolongation” 610 nM (dog plasma; IC1.5× aPTT, STA-PTT reagent).
For `Cc1nn(-c2nc3c(F)cc(F)cc3s2)c(O)c1C(c1ccc(C(F)(F)F)cc1)c1c(C)nn(-c2nc3c(F)cc(F)cc3s2)c1O`, “pancreas to body weight ratio” read 12.9 mg/g and 12.1 mg/g and 10.6 mg/g and 11.3 mg/g (mouse, cerulein-induced acute pancreatitis; 25 mg/kg).
Under “change in EEG Beta2-power Pz-O1”, `OC(CCN1CCCCC1)(c1ccccc1)C1CC2C=CC1C2` (stereo not shown) is recorded as 6.9% (resting-state EEG; healthy elderly humans; oral, 2 mg, eyes open, LS mean; relative to: baseline).
With `Cc1cc(NC(=O)NCCN2CCC(O)(Cc3ccccc3)CC2)c2ccccc2n1` the distance travelled was 30 m and 18 m and 21 m and 34 m and 26 m (open field test; humanized UT (+/h+) mice; dose not given, 0.1667 h).
`COc1cc(/C=C/C(=O)CC(=O)/C=C/c2ccc(O)c(OC)c2)ccc1O` has a plasma HDL-C of 0.97 ± 0.18 mmol/L (high-fat diet hyperlipidaemic rat; oral, 200 mg/kg daily, 4 weeks).
`C[C@@H](O)CCOC(=O)C[C@@H](C)O` gave a metabolite level of -3.5 ± 1.08 µmol/L (measured: C6-DC/C8-OH acylcarnitine; human, plasma; 60 min, log2-transformed values).
For `NC/C(=C\F)COc1cccc(Cn2c(=S)[nH]c(=O)c3[nH]cnc32)c1`, the leukocyte count was 1.2e+07 and 420000 and 2e+07 and 840000 and 6.2e+06 and 3.2e+06 (leukocyte infiltration; mouse, carrageenan air pouch, pouch exudate; 30 mg/kg, 4 h).
`COc1ccc(C2=N[C@@H](c3ccc(Cl)cc3)[C@@H](c3ccc(Cl)cc3)N2C(=O)N2CCNC(=O)C2)c(OC(C)C)c1` has a fractional shortening of 25.7% and 29.8% and 26.9% and 26.5% and 30.5% (echocardiography; Dmd C3333Y mouse; dose not given).
For `C[C@]12CC[C@@H]3c4ccc(O)cc4CC[C@H]3[C@@H]1CC[C@@H]2O`, the mRNA level was 0.0135 and 0.0125 (RT-qPCR, measured: CO; Arabidopsis thaliana ING1:FLAG seedlings; dose not given, 6 h (ZT12), unit not given; relative to: TUB2).
Under “change from baseline”, `NC(=O)c1cnc2[nH]ccc2c1N[C@@H]1[C@@H]2CC3C[C@H]1C[C@@](O)(C3)C2` is recorded as -0.62% (flow cytometry, measured: CD8+ memory T cells; Japanese healthy subjects, peripheral blood; oral, 10 mg twice daily, day 4).
`COC[C@@H](c1ccc(C(F)(F)F)cc1)N1CCN(C2(C)CCN(C(=O)c3c(C)ncnc3C)CC2)C[C@@H]1C` — result for “change in HIV-1 RNA”: -2.31 log10 copies/mL (HIV-1 infected patients, plasma; 10 mg, week 16, with optimized background regimen; relative to: baseline).
For `C[C@H]1C[C@H]2CSC(N)=N[C@@]2(c2nc(NC(=O)c3ccc(OC(F)F)cn3)cs2)CO1`, “percent change from baseline” read -87.5% (measured: Aβ1-40; healthy adults, plasma; 125 mg once daily, day 14; relative to: placebo).
The inhibition of `CC[C@@H]1[C@H](F)C(=O)N[C@@H]1COc1nccc2cc(C(N)=O)c(OC)cc12` is reported as -25.6% (ATP-site probe binding, ActivX profiling, measured: MAP2K1, MAP2K2; THP-1 cell lysate; 0.01 mM, Lys2 site).
Under “CHAC1 mRNA change”, `O=C(COc1ccc(Cl)cc1)NC12CC(c3nnc([C@H]4C[C@@H](OC(F)(F)F)C4)o3)(C1)C2` is recorded as -74.8% (healthy human, PBMC; 100 mg once daily, day 14, 4 h post-dose, median, together with: sodium arsenite ex vivo; relative to: baseline).
Under “PNH RBC clone size”, `CCO[C@H]1CCN(Cc2c(OC)cc(C)c3[nH]ccc23)[C@H](c2ccc(C(=O)O)cc2)C1` is recorded as 43.9% (PNH patients, blood; oral, 25 mg then 100 mg, week 8, mean absolute change; relative to: baseline).
Under “relative tumour volume T/C”, `COc1cc(Nc2ncc3c(n2)-c2ccc(Cl)cc2C(c2c(F)cccc2OC)=NC3)ccc1C(=O)O` is recorded as 1.49 (mouse, KT-10 Wilms tumour xenograft; oral, 10.4 mg/kg, day 7; relative to: vehicle).
Under “plasma protein level change”, `CCOc1c([C@H](C)n2nc(C)c3c(N)ncnc32)cc(Cl)c(F)c1[C@@H]1CNC(=O)C1` is recorded as 250% (Olink proximity extension proteomics, measured: HAOX1; human FL or MZL patients, plasma; dose not given, week 8; relative to: baseline).
`CC(=O)Oc1cc2c(s1)CCN(C(C(=O)C1CC1)c1ccccc1F)C2` (stereo not shown) — result for “patients with inhibition above threshold”: 0% (platelet aggregation, light transmission aggregometry; human patients, platelet-rich plasma; dose not given, 1 h, inhibition threshold 90%, together with: ADP 5 µM).
`Cn1cc(Nc2nccc(-c3ccc4c(c3)CN(C3COC3)CC[C@H]4NC(=O)c3cn(C(C)(C)C)nn3)n2)cn1` — result for “pathway activation z-score”: 1.58 (measured: Protein Kinase A Signaling; splenic B cells, mouse; in vivo, 30 mg/kg, IgD-activated B cells; relative to: vehicle, positive = activation).
`CCCCCN1C[C@H](O)[C@@H](O)[C@H](O)[C@@H]1CO`: “number of decreased sphingolipids” 31 (mouse Hexb-/-, liver; 30 mg/kg/day; relative to: untreated Hexb-/- mice).
Under “maximum change in systolic blood pressure”, `CCO` is recorded as -10.6 ± 8.89 mmHg (supine; concentration not given, 0 to 4 h; relative to: baseline).
Under “tumour volume difference”, `C=CCn1c(=O)c2cnc(Nc3ccc(N4CCN(C)CC4)cc3)nc2n1-c1ccc2c(n1)[C@@](O)(CC)CC2` is recorded as 174 ± 10.5 mm3 (MDA-MB-468 xenograft, CB17 SCID mice; oral, 80 mg/kg, day 56, once daily x 56).
For `N#CC(=Cc1c(Cl)cccc1Cl)C(=O)NCCc1ccccc1`, the labelling was 16.5% (UCHL1; covalent, intact protein LC-MS; 12.5 µM).
`Cc1noc(C)c1-c1cc(C(O)(c2ccccn2)c2ccccn2)c2nc(C3CC3)[nH]c2c1` gave a maximum inhibition of 38% (measured: CCR2 expression; human, peripheral blood; 4 mg, day 1, 1599 study).
Under “log2 fold change”, `c1ccc(-c2n[nH]cc2-c2ccnc3ccccc23)nc1` is recorded as 1.87 (kinase binding, competitor, MIB/MS competition, measured: PKH3; Candida albicans cell lysate; 10 µM; relative to: DMSO).
The k4 of `O=C(OC(C(F)(F)F)C(F)(F)F)N1CCN(Cc2cccc(Oc3ccccc3)c2)CC1` is reported as 0.109 min⁻¹ (PET blocking study; rhesus monkey, brain OCC; 0.01 mg/kg, compound pretreatment, together with: [18F]T-401 tracer).
For `CN(C)C(=N)N=C(N)N`, “HbA1c at end of treatment” read 9.07 ± 0.1% (ZDF rat; 100 mg/kg/day, 6 weeks).
Under “change in 24-h mean serum insulin”, `Cc1ccc([C@@H]2O[C@H](CO)[C@@H](O)[C@H](O)[C@H]2O)cc1Cc1ccc(-c2ccc(F)cc2)s1` is recorded as -4 µU/mL (Japanese type 2 diabetes patients; 25 mg, day 16; relative to: day 0).
`C[C@H](Oc1ccc(Br)cc1-c1ccon1)C(=O)O` — result for “difference from placebo”: 0.357 ms (MVRC latency; human, tibialis anterior muscle; 50 mg, SAD).
`CC(C)NCC(O)c1ccc(O)c(O)c1` (stereo not shown) gave a sarcomere length of 1.63 µm (ventricular cardiomyocytes, C57BL/6 mouse; dose not given, 0.256 s).
`Cc1n[nH]c(C)c1C=C(C#N)C(=O)Nc1ccc(SC(F)F)cc1` has a labelling of 17.9% (UCHL1; covalent, intact protein LC-MS; 12.5 µM).
`CC(C)[C@H](C(=O)Nc1ccc(C(=O)NO)cc1)c1ccccc1` — result for “tumour volume change”: -6.66% (volumetric MRI; human, left schwannoma; dose not given, day 809; relative to: baseline).
`CSCCNc1nc(SCCC(F)(F)F)nc2c1ncn2[C@@H]1O[C@H](COP(=O)(O)OP(=O)(O)C(Cl)(Cl)P(=O)(O)O)[C@@H](O)[C@H]1O`: “patients with inhibition above threshold” 2.6% (platelet aggregation, light transmission aggregometry; human patients, platelet-rich plasma; dose not given, 4 to 6 h, inhibition threshold 90%, together with: ADP 5 µM).
`CN[C@@H]1COc2c(S(=O)(=O)NC(=O)Nc3c4c(cc5c3CCC5)CCC4)cnn2C1` has an inhibition of 98.5% (measured: IL-18; human participants, whole blood ex vivo; 900 mg twice daily, multiple doses, 24 h, IL-18, circulating, adjusted for, together with: LPS/ATP; relative to: baseline).
For `COc1ccc(-c2cncc(N[C@@H](C)c3cccc(NC(=O)c4cncc(C)c4)c3)n2)cc1OC`, the fold change was 0.732 (measured: rno-miR-24-3p; rat SU5416/hypoxia model, lung; dose not given; relative to: SU5416/hypoxia vehicle).
For `Nc1ncnc2c1ncn2[C@H]1C[C@@H]2OP(=O)(O)OC[C@H]3O[C@@H](n4cnc5c(N)ncnc54)C[C@@H]3OP(=O)(O)OC[C@H]2O1`, “complete response rate” read 30% (BALB/c mouse CT26 tumour; iv, 1 mg/kg days 9,12,15).
`CC(C)n1c(C2CCNCC2)nc2c([N+](=O)[O-])c(Br)c(Br)cc21` gave a maximum reduction of -99% (measured: blasts; AML patients IDH mutated, bone marrow; dose not given, all doses).
For `O=C1Nc2cc3[nH]nc(-c4ccncc4)c3cc2CN1Cc1ccccc1`, “partial response, best response” read 0% (RECIST v1.1; human, relapsed or refractory advanced solid tumours; intravenous, 3.6 mg/kg).
`Cc1n[nH]c2ccc(-c3cc(OC[C@@H](N)Cc4ccccc4)cnc3-c3ccoc3)cc12`: “log2 fold change” -0.586 (kinase binding, competitor, MIB/MS competition, measured: KIN3; Candida albicans cell lysate; 10 µM; relative to: DMSO).
The EC50 of `Cc1ccc(C(=O)N(CCCN)[C@@H](c2oc3cc(Cl)ccc3c(=O)c2Cc2ccccc2)C(C)C)cc1` is reported as 4.05 µM (Toxoplasma gondii; parasite growth; HFF, bradyzoite, glutamine-induced).
`Cc1cc(Nc2cc3ncccc3c(N[C@@H]3C[C@H]4CC[C@@H](C3)N4CCC#N)n2)n[nH]1`: “change in stool frequency” -0.3 (moderate-severe ulcerative colitis patients; 20 mg, day 28, Mayo subscore, unit not given; relative to: baseline).
Under “mean fold change”, `CCN(Cc1nc2c(N)nc3cc(-c4cc[nH]n4)ccc3c2[nH]1)C(C)=O` is recorded as 1.5 (immunohistochemistry, measured: NK cells; patients with advanced solid tumours, injected tumour lesions; dose not given, monotherapy; relative to: baseline).
`N#Cc1ccn2c(-c3ccncc3)c(-c3ccc(F)cc3)nc2c1`: “log2 fold change” -0.327 (kinase binding, competitor, MIB/MS competition, measured: ATG1; Candida albicans cell lysate; 10 µM; relative to: DMSO).
The EC50 of `Cc1cc(CN)cc(C)c1NC(=O)c1ccc(-c2cc(Cl)ccc2Cl)o1` is reported as 11 µM (Toxoplasma gondii; parasite growth; HFF, bradyzoite, glutamine-induced).
The sarcomere length of `O=C(O)CNC(=O)Cc1ccccc1` is reported as 1.72 µm (ventricular cardiomyocytes, C57BL/6 mouse; dose not given, 0.664 s).
`N#Cc1ccc2c(-c3ccncc3)c(-c3ccc(F)cc3)nn2c1`: “log2 fold change” 0.0953 (kinase binding, competitor, MIB/MS competition, measured: GIN4; Candida albicans cell lysate; 100 nM; relative to: DMSO).
`N#Cc1ccc2c(c1)[C@H]1CCCN(C(=O)c3ccc4[nH]cnc4c3)[C@H]1C2` gave an HOMA-IR change of 1.2 mmol/L × mU/L (human, Phase II trial; 20 mg once daily, day 28, adjusted mean; relative to: baseline).
`CN1CCN(c2cc(-c3ccncc3)c(-c3ccc4ccccc4c3)nn2)CC1`: “amyloid plaque burden” “no effect” (APP/PS1 transgenic mouse; dose not given).

For quick reference, copied from above:
`COc1cc(/C=C/C(=O)CC(=O)/C=C/c2ccc(O)c(OC)c2)ccc1O` has a plasma HDL-C of 0.97 ± 0.18 mmol/L (high-fat diet hyperlipidaemic rat; oral, 200 mg/kg daily, 4 weeks).
Under “CHAC1 mRNA change”, `O=C(COc1ccc(Cl)cc1)NC12CC(c3nnc([C@H]4C[C@@H](OC(F)(F)F)C4)o3)(C1)C2` is recorded as -74.8% (healthy human, PBMC; 100 mg once daily, day 14, 4 h post-dose, median, together with: sodium arsenite ex vivo; relative to: baseline).
For `C[C@H]1C[C@H]2CSC(N)=N[C@@]2(c2nc(NC(=O)c3ccc(OC(F)F)cn3)cs2)CO1`, “percent change from baseline” read -87.5% (measured: Aβ1-40; healthy adults, plasma; 125 mg once daily, day 14; relative to: placebo).
For `C[C@]12CC[C@@H]3c4ccc(O)cc4CC[C@H]3[C@@H]1CC[C@@H]2O`, the mRNA level was 0.0135 and 0.0125 (RT-qPCR, measured: CO; Arabidopsis thaliana ING1:FLAG seedlings; dose not given, 6 h (ZT12), unit not given; relative to: TUB2).
`Cc1n[nH]c(C)c1C=C(C#N)C(=O)Nc1ccc(SC(F)F)cc1` has a labelling of 17.9% (UCHL1; covalent, intact protein LC-MS; 12.5 µM).
`CCCCCN1C[C@H](O)[C@@H](O)[C@H](O)[C@@H]1CO`: “number of decreased sphingolipids” 31 (mouse Hexb-/-, liver; 30 mg/kg/day; relative to: untreated Hexb-/- mice).
Under “mean fold change”, `CCN(Cc1nc2c(N)nc3cc(-c4cc[nH]n4)ccc3c2[nH]1)C(C)=O` is recorded as 1.5 (immunohistochemistry, measured: NK cells; patients with advanced solid tumours, injected tumour lesions; dose not given, monotherapy; relative to: baseline).
